Published values from different studies.
Each line is one published result; not all experiments were run side by side. ± gives the spread as reported.

Substance	target or system	test	system	conditions	scale	measurement	result
GLFQWTARA	Jurkat T cells expressing 1G4 TCR	NFAT-eGFP reporter, flow cytometry	peptide	concentration not given, HLA-A*02:01 NY-ESO system		reporter activation	0.22%
epoetin alfa	UT7/EPO	microarray, refers to: EPAS1 mRNA (probe set 242868_at)		5 U/mL, 90 min	reference: vehicle	mRNA level	5.6 fold
GSGAGIATEV	human SCRIB PDZ3-4 tandem (MBP fusion)	automated holdup	peptide, purified PDZ protein	concentration not given, unit not given	reference: biotin control resin, higher = stronger binding	binding intensity	0.771
Peginesatide	UT7/EPO	RT-qPCR, refers to: SOCS3		concentration not given, 90 min, normalized to HPRT1	reference: vehicle	mRNA level	26.8 fold
GLAQWISGA	Jurkat T cells expressing 1G4 TCR	NFAT-eGFP reporter, flow cytometry	peptide	concentration not given, HLA-A*02:01 NY-ESO system		reporter activation	0.3%
maraviroc	HBMEC	ECIS		2.5 µM		TEER	no effect
MTVCNASQRQAHAQATAVSL	H1299 lung large cell carcinoma	phage binding output/input	peptide		reference: control phage	selectivity ratio	11.3 ± 3.3
Ac-LRKLRKRLLRDWLKAFYDKVAEKLKEAF-NH2 (N-acetyl, C-amide)	HepG2		peptide	20 µg/mL, 18 h	reference: untreated cells	preβ-HDL apoA-I fold increase	2.5 fold
bis(2,4-dimethylpyridine)dichloroplatinum(II)	BEAS-2B	cell viability, MTT		24 h		IC50	9.2 µM
colistin	Enterobacter cloacae	broth microdilution	clinical isolate RKI-No_506/15			MIC	1 µg/mL
ALLQWVTQV	Jurkat T cells expressing 1G4 TCR	NFAT-eGFP reporter, flow cytometry	peptide	concentration not given, HLA-A*02:01 NY-ESO system		reporter activation	77.5%
KPGKGSETVV	human SCRIB PDZ3-4 tandem (MBP fusion)	automated holdup	peptide, crude extract	concentration not given, uncorrected, unit not given	reference: biotin control resin, higher = stronger binding	binding intensity	0.128

Some of these lines once more:
Substance	target or system	test	system	conditions	scale	measurement	result
epoetin alfa	UT7/EPO	microarray, refers to: EPAS1 mRNA (probe set 242868_at)		5 U/mL, 90 min	reference: vehicle	mRNA level	5.6 fold
GSGAGIATEV	human SCRIB PDZ3-4 tandem (MBP fusion)	automated holdup	peptide, purified PDZ protein	concentration not given, unit not given	reference: biotin control resin, higher = stronger binding	binding intensity	0.771
